Measurements gathered from unrelated publications.
Every numbered part comes from another study and shows a few of its results, in no order. Changes are numbered by the printed parent chain.

Sample 1 — technique: protein binding microarray; form: double-stranded DNA, one strand shown; matrix: in vitro; concentration: not given; reference: not given; reading: higher = stronger binding
Target: Histone acetyltransferase KAT6A, winged helix 2, GST fusion (KAT6A, Homo sapiens, UniProt Q92794, residues 85-181)
Notes: 8-mer, flanks averaged, mean of 2 arrays, mostly near background
Residues (chain): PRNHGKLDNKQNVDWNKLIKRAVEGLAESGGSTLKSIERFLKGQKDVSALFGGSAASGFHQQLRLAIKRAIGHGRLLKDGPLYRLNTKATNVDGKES
Oligonucleotide	E-score
GTCTTAAA	-0.0826
AATCGGAG	0.0956
ACTCAGCG	-0.0567
ATAAGGCC	0.0221
TGGGAAAA	-0.0817
CGGTCACG	-0.0703
AGGGCGAT	-0.0192
AACGATAA	-0.186
AGGTGTGG	-0.109
AGCCAATA	-0.0978
ACCTCACA	-0.0495
GATGGTGC	-0.236

Sample 2 — target: CCNA1, cyclin fold, Cln2 fusion (human); technique: yeast growth competition, sequencing; matrix: yeast; notes: weak parent motif; reference: not given; reading: higher = stronger binding
Starting sequence: USP37 docking peptide (human); PSAKRSLGFLPQP
Change	normalised enrichment score
PAAKRSLGFLPQP [S2A]	0.0454
PSAARSLGFLPQP [K4A]	0.246
PSAKRSAGFLPQP [L7A]	0.00934
PSAKRSLGFLPQA [P13A]	0.165
PSAKRALGFLPQP [S6A]	0.46
PSAKRSLGFLAQP [P11A]	-0.295

Sample 3 — technique: RNA Bind-n-Seq; form: RNA; matrix: in vitro; concentration: 365 nM; reference: no-protein control; reading: higher = stronger binding
Target: RNA binding protein fox-1 homolog 2, RRM domain, GST-SBP tag (RBFOX2, Homo sapiens, UniProt O43251-10, residues 100-194)
Notes: natural RNA segment, single round, ends assumed
Shared flanks, not repeated: GGGAGUUCUACAGUCCGACGAUC … UGGAAUUCUCGGGUGCCAA
Target sequence (chain): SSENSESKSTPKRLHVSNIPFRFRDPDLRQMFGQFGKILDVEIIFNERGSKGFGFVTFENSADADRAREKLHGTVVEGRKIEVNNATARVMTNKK
Oligonucleotide	RBNS enrichment (R)
AGACCUGGGUGUAUUUGCACUUUGGGGCCCUGUUGCUAGCCAUCUUGUGAGUGCCAAUGUAUAAUGCAGUAAAGACUACAUGGAAACACAAACUCAGUCCUUAAAACCCC	0.381
AUAUAAAAUGUAACCACUGAACAUUUGACAACUUUGUUGCAUUAUCAUUUUUAAAAAAAGAUGAAGCAUUUCAAAAUCUUGUUAACCUGGUUAUCUCUUGGUAUCUCUCC	0.365
UUUUGUGACAUAUUGUCAUGCUGAGGUGUGACACCUGCUGCACUCAUCUGAUGUAAAACCAUCCCAGAGCUGGCGAGAGGAUGGAGCUGGGUGGAAACUGCUUUGCACUA	0.455
CAAAGUAGUUUCCCAAGGCAUUUCCCCUAUUGUUUACAUGGUCAAAAGGAAAAUCAAAAUCACUUCUAAUUACAAAAUGUGCUGUUUUGGUGGGGUGGGCAAUCAGAUUA	0.705
UUCUAGUAUUUGGGAAGUGUUUAUGCUUCCUUCCAGGGACCAUCUUAUGAUCAGAGGCAGGAUGUCUGUGAGAUGGUUAGCUAGAGUUAGCAGUGUCCGGGGAGAGUGGC	0.874
CCUCCAACCCUUCUUGCCUACUCCUCACUGCCAGCUGGGACCUAGGCUCAGUCCUGUGUGGUGCCCAUGAUCCUUCUGGUGGGGGAAGAGUUUAAGUUAUAGGGCAUUUG	0.489
GAGGACCAUUGGCUUGCCAAGAGUACAGAAAUUCAUUAUGCUGCUAAUUUAACGUGGAAUUCCUUCAUUUCAUAAGAACCUCAAAAUAAUGGUGAUACAUUCUAGCCUUA	0.754
UUUACUUGAAGACUGUGAAGUUGCCAUUUUGUCUCAUUGUUUUCUUUGACAUAACUAGGAUCCAUUAUUUCCCCUGAAGGCUUCUUGUUAGAAAAUAGUACAGUUACAAC	0.514
ACUGUGGUACAUAUAAGCAACUUUAAUAGGUGAUAAAUGUACAGUAGUUAGAUUUCACCUGCAUAUACAUUUUUCCAUUUUAUGCUCUAUGAUCUGAACAAAAGCUUUUU	0.991
ACGACGUCCAUCCGUCCCACAGAGUGGGACCGACCGCCCCUGCUGCUCCAGCCAGGGCCCCUGCGCUUCCUGUGCAGACAGGAAGCUGUGUGGGAGACUGUCAUUUGGGA	0.161
UCAGCUGACAUCAUGAAUAGAAUGAGGUCUGCUUCAGAACCUUUUGUUGUCAACUGUCACUGUUUCUUCCAAAAGUCACAAUUUGUACAAGAACCUUUGCUUUCCUUAGA	0.342
GCUCAGGCAGACAAAUCGCUCUAGCUCAGAAGUUGCAGAGCAGCCUGGGCAACAUGGUGAAACCCGUCUCUACCAAACAGACAAAAAGCAGCCAGGCGUGGUGGCACAUC	0.486

Other studies, line by line
Molecule	target	assay	system	conditions	how to read	measurement	value
PhoQ, residues 284 288 289 292 302 303 GNNTDL	PhoP, residues 12 14 15 18 19 IQFRS (Escherichia coli, UniProt P23836)	Sort-seq, refers to: YFP reporter	E. coli	PhoQ-PhoP variant library, with: 10 µM Mg2+	reference: high Mg2+ state, higher = stronger signaling	fold induction	6.63

Some of these lines once more (sample 3):
Oligonucleotide	RBNS enrichment (R)
AUAUAAAAUGUAACCACUGAACAUUUGACAACUUUGUUGCAUUAUCAUUUUUAAAAAAAGAUGAAGCAUUUCAAAAUCUUGUUAACCUGGUUAUCUCUUGGUAUCUCUCC	0.365
CAAAGUAGUUUCCCAAGGCAUUUCCCCUAUUGUUUACAUGGUCAAAAGGAAAAUCAAAAUCACUUCUAAUUACAAAAUGUGCUGUUUUGGUGGGGUGGGCAAUCAGAUUA	0.705
UCAGCUGACAUCAUGAAUAGAAUGAGGUCUGCUUCAGAACCUUUUGUUGUCAACUGUCACUGUUUCUUCCAAAAGUCACAAUUUGUACAAGAACCUUUGCUUUCCUUAGA	0.342
UUCUAGUAUUUGGGAAGUGUUUAUGCUUCCUUCCAGGGACCAUCUUAUGAUCAGAGGCAGGAUGUCUGUGAGAUGGUUAGCUAGAGUUAGCAGUGUCCGGGGAGAGUGGC	0.874
